Results of several laboratories.
A part holds a random share of what one study measured. Positions count from the first letter of the parent shown.
UniProt P11229, sequence (whole entry, looked up): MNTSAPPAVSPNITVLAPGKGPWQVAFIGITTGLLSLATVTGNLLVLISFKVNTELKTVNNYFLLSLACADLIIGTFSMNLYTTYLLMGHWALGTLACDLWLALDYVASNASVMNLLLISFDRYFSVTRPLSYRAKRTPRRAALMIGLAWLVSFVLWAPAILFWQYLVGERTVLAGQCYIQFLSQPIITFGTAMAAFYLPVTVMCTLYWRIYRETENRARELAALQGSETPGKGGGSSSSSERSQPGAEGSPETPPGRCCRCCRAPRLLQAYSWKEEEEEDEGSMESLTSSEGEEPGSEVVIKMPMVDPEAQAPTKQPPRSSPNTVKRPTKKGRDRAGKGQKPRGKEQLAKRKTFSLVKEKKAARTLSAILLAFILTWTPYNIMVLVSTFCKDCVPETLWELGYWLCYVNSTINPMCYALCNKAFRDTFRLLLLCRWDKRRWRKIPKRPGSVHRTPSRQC

Study 1
Target: UDP-N-acetylglucosamine--peptide N-acetylglucosaminyltransferase 110 kDa subunit (OGT, Homo sapiens, UniProt O15294)
UniProt O15294, sequence (whole entry, looked up): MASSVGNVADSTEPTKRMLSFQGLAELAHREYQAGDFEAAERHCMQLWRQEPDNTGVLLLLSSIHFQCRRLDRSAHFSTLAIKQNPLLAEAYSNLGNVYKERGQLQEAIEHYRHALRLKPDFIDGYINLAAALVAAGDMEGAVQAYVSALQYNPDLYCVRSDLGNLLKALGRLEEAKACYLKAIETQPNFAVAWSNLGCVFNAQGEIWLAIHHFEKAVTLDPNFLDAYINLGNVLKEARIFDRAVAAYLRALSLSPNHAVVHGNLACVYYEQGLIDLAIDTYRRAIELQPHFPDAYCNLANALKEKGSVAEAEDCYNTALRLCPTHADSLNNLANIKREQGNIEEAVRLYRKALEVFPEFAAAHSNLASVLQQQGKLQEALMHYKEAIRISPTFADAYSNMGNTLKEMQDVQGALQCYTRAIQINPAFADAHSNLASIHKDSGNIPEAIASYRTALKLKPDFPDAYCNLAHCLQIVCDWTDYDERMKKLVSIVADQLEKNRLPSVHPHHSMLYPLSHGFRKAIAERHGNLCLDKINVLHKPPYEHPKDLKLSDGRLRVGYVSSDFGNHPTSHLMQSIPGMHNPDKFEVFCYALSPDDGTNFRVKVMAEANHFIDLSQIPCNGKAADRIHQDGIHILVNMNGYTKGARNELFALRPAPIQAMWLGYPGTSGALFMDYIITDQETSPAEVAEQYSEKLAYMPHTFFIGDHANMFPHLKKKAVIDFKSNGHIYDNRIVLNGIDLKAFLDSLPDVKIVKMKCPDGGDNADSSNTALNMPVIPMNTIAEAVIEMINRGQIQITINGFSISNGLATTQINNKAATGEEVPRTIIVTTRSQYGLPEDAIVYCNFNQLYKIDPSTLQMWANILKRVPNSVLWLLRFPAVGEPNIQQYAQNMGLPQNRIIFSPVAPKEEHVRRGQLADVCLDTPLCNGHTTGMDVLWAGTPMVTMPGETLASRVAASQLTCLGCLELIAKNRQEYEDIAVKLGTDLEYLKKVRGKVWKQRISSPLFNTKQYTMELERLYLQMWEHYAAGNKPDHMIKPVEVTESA
Read-out: binding
Method: phage display NGS
Form: peptide
Setting: panning round 2
Reference: input library
| Molecule | minimum log2 enrichment ratio |
| --- | --- |
| HPTAHYHHQAIRHFQ | 1.98 |
| HPHGHRNTAISWTAM | 2.2 |
| HSQHMFEHEHVVKA | 2.27 |
| HADHKSPLFNHNTQH | 2.18 |
| TIAQQSRMMNHHSKH | 2.34 |
| DHAHRHWYAMRNHHT | 2.59 |
| QPQHQSNQHVHHRYF | 1.69 |
| GMTHQYHLHHDSGFQ | 2.63 |

Study 2
Target: CCNB2, cyclin fold, Cln2 fusion (human)
Method: yeast growth competition, sequencing
Medium: yeast
Setting: strong parent motif
Reference: not given
Direction: higher = stronger binding
Starting sequence: viral docking peptide; KKAKRRLFTISDS; partner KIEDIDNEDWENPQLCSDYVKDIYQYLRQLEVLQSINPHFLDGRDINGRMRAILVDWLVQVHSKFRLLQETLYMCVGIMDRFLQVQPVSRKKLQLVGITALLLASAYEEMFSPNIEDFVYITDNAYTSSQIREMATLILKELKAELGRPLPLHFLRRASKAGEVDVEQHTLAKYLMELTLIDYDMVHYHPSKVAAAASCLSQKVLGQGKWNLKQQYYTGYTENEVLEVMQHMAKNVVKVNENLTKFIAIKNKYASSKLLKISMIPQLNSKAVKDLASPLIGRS
| Change | normalised enrichment score |
| --- | --- |
| L7A | 0.235 |
| R5A | 0.881 |
| D12A | 0.484 |
| R5K F8L | 0.302 |
| F8A | 0.53 |
| R5A L7A | 0.341 |
| K1A | 0.569 |
| R5K | 0.524 |

Other studies, line by line
Concentration: 10 µM
| Structure (SMILES) | tested on | test | test system | setting | scale | measurement | result |
| --- | --- | --- | --- | --- | --- | --- | --- |
| O=c1[nH]c2ccccc2n1C1CCN(CCCC(c2ccc(F)cc2)c2ccc(F)cc2)CC1 | Plasmodium berghei | inhibitor | Huh-7, GFP-expressing, liver stage | 24 h | reference: untreated control | infection rate | 41.4% |
| CC(=O)C1=C(C)N(c2cccc(C(F)(F)F)c2)C(=O)N[C@H]1c1ccc(C#N)nc1 | Muscarinic acetylcholine receptor M1 (CHRM1, Homo sapiens, UniProt P11229) | ligand displacement | – | – | – | inhibition | -19.4% |
| CC(C)(N)Cc1ccccc1 | Plasmodium berghei | inhibitor | Huh-7, GFP-expressing, liver stage | 24 h | reference: untreated control | infection rate | 14.6% |

Excerpt of the above (study 1):
| Molecule | minimum log2 enrichment ratio |
| --- | --- |
| HADHKSPLFNHNTQH | 2.18 |
| GMTHQYHLHHDSGFQ | 2.63 |
| HPTAHYHHQAIRHFQ | 1.98 |
